Experimental data collected from several papers.
Numbered parts are unrelated; each lists some results of a single study.

Series 1
Target: Histone acetyltransferase KAT6A, both winged helices, GST fusion (KAT6A, Homo sapiens, UniProt Q92794, residues 1-181)
Method: protein binding microarray
Molecule type: double-stranded DNA, one strand shown
Sample: in vitro
Tested at: not given
Notes: 8-mer, flanks averaged, mean of 2 arrays, mostly near background
Baseline: not given
Reading: higher = stronger binding
Target sequence (chain): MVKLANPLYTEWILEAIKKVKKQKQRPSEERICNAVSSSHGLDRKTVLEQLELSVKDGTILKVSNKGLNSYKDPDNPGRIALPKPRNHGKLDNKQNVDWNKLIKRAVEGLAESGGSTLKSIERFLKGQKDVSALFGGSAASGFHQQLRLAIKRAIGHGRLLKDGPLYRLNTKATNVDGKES
With `GCATATGA` the E-score was 0.0601.
The E-score of `GCTCTGCC` is reported as -0.0477.
For `CTCTGCGC`, the E-score was 0.256.
`ACGTGGAT` gave an E-score of -0.0603.
For `AAGGCGAC`, the E-score was -0.0821.
`AGGCATCG` gave an E-score of -0.0522.
`AATCGCCT` has an E-score of -0.196.
`CGCGATAG` gave an E-score of 0.162.
For `CCCACGCC`, the E-score was -0.0633.
For `CAAACTAA`, the E-score was -0.0237.
For `CTAGGGGA`, the E-score was -0.253.
With `TTAACCAA` the E-score was -0.174.
`AGTGGCGG` gave an E-score of 0.103.
`ATTGTCTA` gave an E-score of 0.00236.
With `CACCCTTA` the E-score was -0.208.
`TATCGAGA` gave an E-score of -0.137.
`ACGATGCC` has an E-score of 0.0479.
`AAAGATGG` gave an E-score of -0.0154.
With `TTCTCCAA` the E-score was -0.128.
`GTAAGGAC` gave an E-score of 0.102.
The E-score of `GGGTCAAC` is reported as -0.108.
`AGCAAGTC` gave an E-score of -0.141.
`TAACGAGA` gave an E-score of -0.225.

Series 2
Target: RING finger protein unkempt homolog, zinc fingers 1-6, SBP tag (UNK, Homo sapiens, UniProt Q9C0B0, residues 30-357)
Chain of UniProt Q9C0B0 (30-357, looked up): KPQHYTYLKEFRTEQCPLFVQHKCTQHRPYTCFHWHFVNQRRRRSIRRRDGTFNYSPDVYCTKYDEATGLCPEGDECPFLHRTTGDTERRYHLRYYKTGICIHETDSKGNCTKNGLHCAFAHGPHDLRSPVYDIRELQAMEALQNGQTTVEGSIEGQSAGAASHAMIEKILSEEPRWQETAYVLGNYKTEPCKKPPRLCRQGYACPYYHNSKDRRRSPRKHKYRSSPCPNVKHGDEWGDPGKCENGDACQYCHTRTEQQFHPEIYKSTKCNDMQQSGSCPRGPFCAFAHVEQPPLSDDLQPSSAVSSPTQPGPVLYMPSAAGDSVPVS
Method: RNA Bind-n-Seq
Molecule type: RNA
Sample: in vitro
Tested at: 100 nM
Notes: RNA with constant flanks, vertebrate orthologous sites, ends assumed
Baseline: input RNA pool
Reading: higher = stronger binding
The bound/input enrichment of `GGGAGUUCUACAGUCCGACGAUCUUCACUACCUGACUAGAGUCGAGGUUACAGAGUUCGAGGACAUCAAAUCAGGUUACAGAAUAGAUUUUUAGACAAAUUUCUUGCUUGGUUCUAAAUUUAAUUUACAAAAAGGAAGACUGUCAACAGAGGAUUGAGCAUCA` is reported as 0.573 ratio.
The bound/input enrichment of `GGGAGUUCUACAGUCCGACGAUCCAUAAAAUAUUGGAUGCAGUGUAUAAAUUAUCCAAGGCAGUGACUUCAGCUUUAUAUAUAUUGUUAGUUUUAAAGUCAUCUACUUUUAUUUAAACUUCUAGAUUGGACUGUUUGCUAUUGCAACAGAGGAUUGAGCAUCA` is reported as 0.688 ratio.
`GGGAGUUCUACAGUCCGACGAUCCAGCAUCCUUUCAUACUGUCUUGGGCCAGGGCCACAGCCGAUAUCUUAUACGACCUGUGUUUCGGACAUUUUUUAAAUCAUUGUAUCCAAGCAUCUCAGAGACAAGUGUGCUUCUUUGCGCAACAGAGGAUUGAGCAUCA` has a bound/input enrichment of 0.674 ratio.
The bound/input enrichment of `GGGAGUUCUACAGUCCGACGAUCCUGCUGUGGUUUCUAUUAUUUCCUCUGUUUAGAAUAUUUCGUAUGCUAAAGUCCCAACUCUCUAGUUUUUGAUGGAAUUGCUAUAUUGACAGUUCUCACCUAAGUGCUUUGACAAAGAGCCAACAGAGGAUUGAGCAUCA` is reported as 1.79 ratio.
`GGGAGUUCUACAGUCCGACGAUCUAUAAUUAUGAAAAUCUAAAGGAUUUUUAAUGUUUAAUUUCCCCCAGCAUCUAUAUUAAGAUCUCUUUUUCCAGGCAGAUCAUUCAGAGUGUGCGAGUGUGUGUGCACAUGUUACAAAGACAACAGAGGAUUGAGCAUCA` has a bound/input enrichment of 0.465 ratio.
`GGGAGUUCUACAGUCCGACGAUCAAUUGAACAAAAAUGUUUCCACUGGCUUUUGCCUGUAAGAAAAAAAUGUACCCGAGCACAUAGAGCUUUUUAAUAGCACUAACCAAUGCCUUUUUAGAUGUAUUUUUGAUGUAUAUAUCUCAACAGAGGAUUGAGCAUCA` gave a bound/input enrichment of 0.538 ratio.
`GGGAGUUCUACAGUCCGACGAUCUGAAAAUAACUUCUGUUCCAUUGAGACUAAAAAUAGUCCCAUAAAUAGAAAACUCCUAAGUAACUUUUUUAAAUAAAAAACAUUAAAUUUUGUAAAUCACCUGCUGCCACAAUACAACUGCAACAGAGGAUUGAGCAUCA` gave a bound/input enrichment of 0.983 ratio.
`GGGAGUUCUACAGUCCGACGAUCAUGGCUUUUGCUUCAUGAAAAAGACUUAAUAAAUAGUCCCCUCAAUUAAAAAUGCCUAAAUAGCUAUUUUAAAAAUCAAAUGUUUAAAUUUUGUAAAUCACCUGAUGUCACUACACACCUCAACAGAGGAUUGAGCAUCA` has a bound/input enrichment of 0.661 ratio.

Series 3
Target: RNA binding protein fox-1 homolog 2, RRM domain, GST-SBP tag (RBFOX2, Homo sapiens, UniProt O43251-10, residues 100-194)
Method: RNA Bind-n-Seq
Molecule type: RNA
Sample: in vitro
Tested at: 365 nM
Notes: natural RNA segment, single round, ends assumed
Baseline: no-protein control
Reading: higher = stronger binding
Construct (chain): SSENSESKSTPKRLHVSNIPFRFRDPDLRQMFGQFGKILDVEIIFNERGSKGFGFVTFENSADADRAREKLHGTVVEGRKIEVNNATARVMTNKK
`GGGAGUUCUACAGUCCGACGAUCAGCAAGCGAACUUAGUGCCACAGGUGUUCAUUUACUCGGGAAAUGGUUUUGCUUUUUGUAUUGUCUAAUCUCUUUAAUGACUUCAUACUGUGUAAGGAAAAUUACUUUUGUGGAAUUCUCGGGUGCCAA`: “RBNS enrichment (R)” 0.361.
Under “RBNS enrichment (R)”, `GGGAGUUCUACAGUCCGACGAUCGGGUGCGUCUGCAGCUCCUCCCCUUGGGCAGCCUGGUUCUCCCGGAGGACCUUUCCUUGGGGCCCUGCUUCAUGACGAUGCUGCCUGUGUCACCCUCUACCAUCUGUAAAUGGAAUUCUCGGGUGCCAA` is recorded as 0.422.
`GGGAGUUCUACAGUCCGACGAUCGCAGCUGGACUUGAACCCACAAUGGCUUGUGUAAAUUCGUAAAUUUCAUGGUUUCUAGGAAAAGCUGCAUUGGGGUGGGGAGACCCAGUUUGCCUCAUAGGCAGAGGAUUUGGAAUUCUCGGGUGCCAA`: “RBNS enrichment (R)” 0.281.
`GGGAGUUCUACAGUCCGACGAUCGGCUGGAUGGAGUUUCUUUUGUAAGGUGCACAACACAUUCUUGACAAAUGUGAGUCUCCUGAUCAAUUUAAAUGUUUGAGAUUGAAUAUCUAAUUAAUAAUUCAAUUUUGUGGAAUUCUCGGGUGCCAA`: “RBNS enrichment (R)” 0.423.
Under “RBNS enrichment (R)”, `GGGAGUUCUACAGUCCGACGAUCACGACCUCAUCCUGGAGAUCGAGUGAUCUUGCCCCAGACCGGCAGCCUGGCCAUCCCCAAGCCUUCAACAGAAGCUGUGCUGCCACGGCAGGCCCAGGCCAGCCAGUGCCUGGAAUUCUCGGGUGCCAA` is recorded as 0.338.
Under “RBNS enrichment (R)”, `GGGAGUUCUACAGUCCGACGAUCAGAGCUUGGCGAGUACAAAGGGAGAGGAAGACAUUUGAACUUUAGAACUUUGUUUCAGCGUGACUCUCCCACCCUGCCCCAAGUUGAAUGUUCCCUUCACAUUGAAUCAAUGGAAUUCUCGGGUGCCAA` is recorded as 0.868.
For `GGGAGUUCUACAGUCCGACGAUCUUAUAUAGAUAAUUCUUGACUGUAAAACAUUUUGACCAGUGUUUUACAACAUGUACAUAAGAAUACACAUAAUUCAACUAGAGAUUUGAAGAAUUGGCUUGUAUAGUUAUUGGAAUUCUCGGGUGCCAA`, “RBNS enrichment (R)” read 0.46.
For `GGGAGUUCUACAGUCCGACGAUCGGUCAUAUCUGCCACAAAGCACUUGGGCCCCCUGCAUUCAGGUGACCACCCCUCGCCUCCCCUUCUCCAGGACUAUGAGCUCUUCGUGGAGGCUGUGGAACAAAACACGCUGGAAUUCUCGGGUGCCAA`, “RBNS enrichment (R)” read 0.474.

Series 4
Target: Ras GTPase-activating protein-binding protein 1, RRM domain (G3BP1, Homo sapiens, UniProt Q13283)
Chain of UniProt Q13283 (whole entry, looked up): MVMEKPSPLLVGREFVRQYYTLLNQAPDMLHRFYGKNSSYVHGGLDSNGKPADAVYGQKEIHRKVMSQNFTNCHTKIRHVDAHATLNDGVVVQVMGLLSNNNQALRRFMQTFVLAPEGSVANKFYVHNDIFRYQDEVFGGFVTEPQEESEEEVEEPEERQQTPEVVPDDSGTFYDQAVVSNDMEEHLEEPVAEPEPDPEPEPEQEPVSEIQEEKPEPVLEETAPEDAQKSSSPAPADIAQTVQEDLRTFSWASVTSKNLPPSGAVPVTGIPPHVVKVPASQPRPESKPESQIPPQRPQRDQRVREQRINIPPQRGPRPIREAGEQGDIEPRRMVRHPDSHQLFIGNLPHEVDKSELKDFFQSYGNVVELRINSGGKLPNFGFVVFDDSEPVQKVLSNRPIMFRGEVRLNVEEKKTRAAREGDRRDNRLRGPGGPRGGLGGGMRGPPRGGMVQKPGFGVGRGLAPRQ
Method: RNA Bind-n-Seq
Molecule type: RNA
Sample: in vitro
Tested at: 1 µM
Notes: whole 134-nt RNA, ends assumed
Added: 150 mM KCl
Baseline: input library
Reading: higher = stronger binding
For `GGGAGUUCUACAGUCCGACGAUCAAGUCCUGUGCUACACAUCGUAUGUACCGAAUCGGCCCCGGGGCCCCGGGCCCCGGAAAGUAUUAUGUUACGCCGUUCGGAUCUGCACUUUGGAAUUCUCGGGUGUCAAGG`, the log2 enrichment was -0.624.
The log2 enrichment of `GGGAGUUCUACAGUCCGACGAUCACCAUGCAGGUGGGCAUCUUUAAAAAGUGGGGCAAGGGGGGGAUAGGGAGGGGGGUAACACUUUGGGAACAGGUGGUCCCAGGUCGUUUCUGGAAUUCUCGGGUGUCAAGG` is reported as -0.398.
For `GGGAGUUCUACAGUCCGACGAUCAGUCCUGUGCUACACAUCGUAUGUACCGAAUCGGGAAAAAGGGUUUUUGGGAAAGGGAAAGUAUUAUGUUACGCCGUUCGGAUCUGCACUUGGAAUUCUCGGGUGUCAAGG`, the log2 enrichment was 0.274.
With `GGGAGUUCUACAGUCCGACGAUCACCAUGCAGGUGGGCAUCUUUGGGAAGUGGGGCUAGGGGGGGAUAGGGAGGGGGGUAACACUUUGGGAACAGGUGGUCCCAGGUCGUUUCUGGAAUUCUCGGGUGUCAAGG` the log2 enrichment was -0.449.
`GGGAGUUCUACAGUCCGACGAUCUGGCCCUGGUGGCAUGCGAGGAGGAAGAGGUGGCCUCAUGGAUCGUGGUGGUCCCGGUGGAAUGUUCAGAGGUGGCCGUGGUGGAGACAGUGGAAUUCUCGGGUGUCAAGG` has a log2 enrichment of 0.845.
The log2 enrichment of `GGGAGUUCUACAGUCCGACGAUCUGGCCCUGGUGGCAUGCGGGGAGGAAGAGGUGGCCUCAUGCAUCGUGGUGGUCCCGGUGGAAUGUUCAGAGGUGGCCGUGGUGGAGACAGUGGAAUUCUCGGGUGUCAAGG` is reported as 0.282.
With `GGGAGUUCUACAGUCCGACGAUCAAGUCCUGUGCUACACAUCGUAUGUACCGAAUCAAACCCAAACCCCCAAACCCAAAAAAGUAUUAUGUUACGCCGUUCGGAUCUGCACUUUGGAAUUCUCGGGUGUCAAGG` the log2 enrichment was -0.147.
`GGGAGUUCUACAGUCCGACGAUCGAGGAGCUGCUGCUGGAGCCCGAGCCGGAGCCCGAGCCCGAAGAGGAGCCGCCCCGGCCCCGCGCCCCCCCGGGAGCUCCGGGCCCUGGGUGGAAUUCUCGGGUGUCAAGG` gave a log2 enrichment of -0.91.
`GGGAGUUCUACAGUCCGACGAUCACCAUGCAGGUGGGCAUCUUUGGGAAGUGGGGCAAGGGGGGGAUAGGGAGGGGGGUAACACUUUGGGAACAGGUGGUCCCAUGUCGUUUCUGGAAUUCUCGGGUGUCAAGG` has a log2 enrichment of 0.309.

Series 5
Target: Sal-like protein 4, full length isoform B (SALL4, Homo sapiens, UniProt Q9UJQ4-2, residues 1-616)
Method: universal PBM
Molecule type: double-stranded DNA, one strand shown
Sample: in vitro
Tested at: not given
Notes: 8-mer, flanks averaged, mean of replicates
Reading: higher = stronger binding
With `CTACATAC` the E-score was 0.265.
With `CACGAGCC` the E-score was -0.247.
With `ACATAACT` the E-score was 0.29.
The E-score of `GAATGTTA` is reported as 0.125.
With `AAGCTTGC` the E-score was -0.0869.
`AGAACACG` gave an E-score of -0.0488.
`ACCCGGTC` gave an E-score of -0.377.
`AAGTATAG` has an E-score of 0.146.
With `CAAAGCTC` the E-score was -0.197.
For `ATACCTCC`, the E-score was -0.0672.
`GAGTGGCC` has an E-score of -0.246.
`CCCGCGCA` has an E-score of -0.259.
The E-score of `AGACAGCG` is reported as -0.195.
`GCTACCAC` has an E-score of -0.162.
`CCGAATCC` has an E-score of -0.286.
With `CTCCTGCA` the E-score was -0.0683.
`AGCATAGC` gave an E-score of -0.00432.
`CCTTCCAC` has an E-score of -0.0938.
For `ACGGACGA`, the E-score was -0.0502.
With `CCCCGGAA` the E-score was -0.274.
The E-score of `GTGGGGGA` is reported as -0.0299.

Repeated from above (series 1):
`TAACGAGA` gave an E-score of -0.225.
For `CTAGGGGA`, the E-score was -0.253.
`AAAGATGG` gave an E-score of -0.0154.
`ACGTGGAT` gave an E-score of -0.0603.
For `CTCTGCGC`, the E-score was 0.256.
`AGTGGCGG` gave an E-score of 0.103.
`ACGATGCC` has an E-score of 0.0479.
The E-score of `GGGTCAAC` is reported as -0.108.
`AATCGCCT` has an E-score of -0.196.
